Results collected from several papers.
Several values in a cell are separate wells, animals, samples, runs or records. ± gives the spread as reported.

CC(C)[N+](C)(CCOC(=O)C1c2ccccc2Oc2ccccc21)C(C)C  half-life (human plasma; plasma stability): 14.9 ± 1.6 min
O=S(=O)(F)Oc1cc(C(F)(F)F)cc(C(F)(F)F)c1  half-life (reactivity with N-α-acetyl-lysine, HPLC-MS; BBS buffer with acetonitrile; 1 mM, pH 10.2): 36 min
CC[C@H](C)[C@@H]1NC(=O)[C@H](Cc2ccc(O)cc2)NC(=O)[C@@H](N)CSSC[C@@H](C(=O)N2CCC[C@H]2C(=O)N[C@@H](CC(C)C)C(=O)NCC(N)=O)NC(=O)[C@H](CC(N)=O)NC(=O)[C@H](CCC(N)=O)NC1=O  half-life (phosphate buffer; 0.1 mg/mL, pH 2.0, 40 °C): 19400 min
CC(C)C[C@@H](NC(=O)[C@H](Cc1ccccc1)NC(=O)CNC(=O)[C@@H](C)NC(=O)[C@H](Cc1ccc(O)cc1)NC(=O)[C@@H]1CCCN1C(=O)[C@@H]1CCCN1C(=O)c1ccc[n+](C)c1)C(=O)O  half-life (rat medulla oblongata homogenate; 100 µM, pH 7.4, 37 °C): 72 min
N#Cc1ccncc1  half-life (PBS with 5% acetonitrile; 250 µM, pH 7.4, no glutathione): 8770 min
C[C@]1(CO)Cc2ncn(-c3ccc(C#N)c(Cl)c3)c2C(=O)O1  half-life (healthy Japanese adults, plasma; 80 mg once daily, after first dose, multiple dose): 348 min
CCCCCCCCCCCCCCCC(=O)ONc1ccn([C@@H]2O[C@H](CO)[C@@H](O)[C@H]2O)c(=O)n1  half-life (human plasma; 2 µM, 37 °C): 171 min
N=C(Nc1ccccc1)Nc1ccccc1  half-life (substrate depletion; phenobarbital/β-naphthoflavone-induced rat liver microsomes; 1 µM, pH 7.4, 37 °C, with: NADPH): 54.4 min
CCCCCn1cc(C(=O)Nc2cccc3ccccc23)c2ccccc21  half-life (male human liver microsomes; 1 µM, pH 7.4, 37 °C): 2.29 min
Nc1ncnc2c1ncn2[C@@H]1O[C@@H]2COP(=O)([S-])O[C@@H]3[C@H](O)[C@@H](COP([O-])(=S)O[C@H]2[C@H]1O)O[C@H]3n1cnc2c(N)ncnc21.[Na+].[Na+] (some centres unmarked)  half-life (HPLC; 20% FBS in PBS; 100 µM, pH 7.4, 37 °C): 4020 min
CC(C)C[C@@H](NC(=O)[C@H](Cc1ccccc1)NC(=O)CNC(=O)[C@@H](C)NC(=O)[C@H](Cc1ccc(O)cc1)NC(=O)[C@@H]1CCCN1C(=O)c1ccc[n+](C)c1)C(=O)O  half-life (HPLC-UV; 20% rat brain homogenate; pH 7.4): 346 min
O=C(O)Cc1ccccc1Nc1c(Cl)cccc1Cl  half-life (human liver microsomes; 1 µM, pH 7.4): 5.5 min
CC[C@H](C)[C@H](NC(=O)[C@@H](NC(=O)[C@H](N)Cc1ccccc1)C(C)C)C(=O)N[C@@H](C)C(N)=O  half-life (fetal bovine serum; pH 7.4, 37 °C): 792 min
CC(=O)OC/C(C)=C/CCP(=O)(OCOC(=O)C1CCOCC1)Oc1ccc(C(C)C)cc1 (centres unmarked)  half-life (50% CD1 mouse plasma; 100 µM, pH 7.5, 37 °C): 0.37 min
CCC(CNc1nc(-c2cn3ccnc3cc2C)nc2ccccc12)c1ccccc1 (centres unmarked)  half-life (mouse liver microsomes): 6.9 min and 7 min
Cn1ncc(-c2nc(N[C@H]3CC[C@H](N)CC3)ncc2Cl)c1CC1CC1  half-life (HPLC-MS/MS; patients, plasma; oral, 3 mg, day 5): 1490 min
C/C(=C\CCP(=O)(OCOC(=O)CC1CCCCC1)Oc1ccc(C(C)C)cc1)CO (centres unmarked)  half-life (50% CD1 mouse plasma; 100 µM, pH 7.5, 37 °C): 3.1 min
C/C=C1/CN2CC[C@]34C(=C(C(=O)OC)[C@H]1C[C@H]23)Nc1ccccc14  half-life (rat liver microsomes, male; 1 µM, pH 7.4, protein 1 mg/mL, with: NADPH 1 mM): 30.3 ± 0.7 min
CC(C)C[C@@H](NC(=O)[C@H](Cc1ccccc1)NC(=O)CNC(=O)[C@@H](C)NC(=O)[C@H](Cc1ccc(O)cc1)NC(=O)c1ccc[n+](C)c1)C(=O)O  half-life (rat whole brain homogenate (20% w/w); pH 7.4, 37 °C): ~480 min
C/C(=C\CCP(=O)(OCOC(=O)c1ccccc1)Oc1ccc(C(C)C)cc1)CO (centres unmarked)  half-life (50% CD1 mouse plasma; 100 µM, pH 7.5, 37 °C): 1.2 min
CC[C@H](C)[C@H](NC(=O)[C@H](Cc1ccccc1)NC(=O)[C@H](CC(=O)O)NC(=O)[C@H](CCCNC(=N)N)NC(=O)[C@H](Cc1ccccc1)NC(=O)[C@H](Cc1ccccc1)NC(=O)[C@H](CCCCN)NC(=O)[C@H](CO)NC(=O)[C@H](CC(C)C)NC(=O)[C@H](CCCNC(=N)N)NC(=O)[C@H](CCSC)NC(=O)[C@H](C)N)C(=O)N[C@@H](CC(C)C)C(=O)N[C@@H](CCC(N)=O)C(=O)N[C@@H](CCCNC(=N)N)C(=O)N[C@@H](CCCCN)C(=O)N[C@@H](CCCCN)C(=O)O  half-life (trypsin/chymotrypsin in ammonium carbonate; 0.066 mM, pH 8.0, 37 °C, with: trypsin/chymotrypsin 0.05 µg/mL): 90 min
CCN1CC2(CCN(CCc3cc(F)ccc3F)CC2)O[C@H](C)C1=O  half-life (ferret, plasma; intraperitoneal, 0.5 mg/kg): 258 ± 12 min
COc1ccc(C(=O)OCOP(=O)(CC/C=C(\C)CO)Oc2ccc(C(C)C)cc2)cc1 (centres unmarked)  half-life (50% CD1 mouse plasma; 100 µM, pH 7.5, 37 °C): 0.85 min
CC[C@H](C)[C@H](NC(=O)[C@H]1CCC[C@@H]1NC(=O)[C@H](CC(=O)O)NC(=O)[C@H](CC(C)C)NC(=O)[C@H](CCCCN)NC(=O)[C@H]1CCC[C@@H]1NC(=O)[C@H](CC(N)=O)NC(=O)[C@H](CO)NC(=O)[C@H]1CNC[C@@H]1NC(=O)[C@H](CCCNC(=N)N)NC(=O)[C@@H](NC(=O)[C@H](Cc1c[nH]c2ccccc12)NC(=O)C[C@H](CCC(=O)O)NC(=O)[C@H](CCCCN)NC(=O)[C@H](CO)NC(=O)C[C@H](CCC(=O)O)NC(=O)[C@H](CCC(=O)O)NC(=O)[C@H](CC(C)C)NC(=O)[C@H](CC(=O)O)NC(=O)[C@H]1CCC[C@@H]1NC(=O)[C@H](CCCCN)NC(=O)[C@@H](NC(=O)[C@H]1CNC[C@@H]1NC(=O)[C@H](CC(N)=O)NC(=O)[C@H](CC(C)C)NC(=O)[C@@H](NC(=O)[C@H]1CCC[C@@H]1NC(=O)[C@H](CO)NC(=O)[C@@H](NC(=O)[C@H](CC(=O)O)NC(=O)[C@@H](NC(=O)[C@@H]1CCCN1C(=O)[C@H](CC(=O)O)NC(=O)[C@H](CC(C)C)NC(=O)[C@H](C)NC(=O)[C@@H](NC(C)=O)C(C)C)[C@@H](C)CC)[C@@H](C)CC)C(C)C)[C@@H](C)CC)[C@@H](C)CC)C(N)=O  half-life (UPLC; Tris-buffered saline; pH 7.6, 23 °C, with: proteinase K 8 µg/mL): 4.27 min
CC(O)(CS(=O)(=O)c1ccc(F)cc1)C(=O)Nc1ccc(C#N)c(C(F)(F)F)c1 (centres unmarked)  half-life (substrate depletion; phenobarbital/β-naphthoflavone-induced rat liver microsomes; 1 µM, pH 7.4, 37 °C, with: NADPH): 25.4 min
O=C/C=C/c1ccccc1  half-life (phase II metabolic stability; human liver S9 fraction; 10 µM, pH 7.4, with: UDPGA): 1.97 ± 0.07 min
CC(C)CC(=O)OC[C@H]1O[C@@](C#N)(c2ccc3c(N)ncnn23)[C@H](O)[C@@H]1O  half-life (dog whole blood; 5 µM): 34.2 min
CC(C)C[C@H](NC(=O)[C@H](Cc1ccccc1)NC(=O)[C@H](Cc1ccccc1)NC(=O)Cc1ccc(-c2ccccc2)cc1)C(=O)N[C@@H](CCCCN)C(=O)N[C@@H](CCCNC(=N)N)C(=O)N[C@H](C(=O)N[C@@H](Cc1c[nH]c2ccccc12)C(=O)N[C@@H](CCCCN)C(=O)N[C@@H](CCCNC(=N)N)C(=O)O)C(C)C  half-life (monkey liver microsomes): 2.45 min
[Cl][Ru-]([Cl])([Cl])[Cl].[Na+].c1ccc2[nH]ncc2c1.c1ccc2[nH]ncc2c1  half-life (ICP-MS, refers to: total ruthenium; advanced solid tumour patients, plasma; iv infusion, 40 mg/m2, cycle 1 cohort mean): 9240 min
C/C(=C\CCP(=O)(OCOC(=O)C1CCOCC1)Oc1ccc(C(C)C)cc1)CO (centres unmarked)  half-life (50% CD1 mouse plasma; 100 µM, pH 7.5, 37 °C): 0.45 min
CC(C)C[C@@H](NC(=O)[C@H](Cc1ccccc1)NC(=O)CNC(=O)[C@@H](C)NC(=O)[C@H](Cc1ccc(O)cc1)NC(=O)[C@H](C)NC(=O)[C@H](C)NC(=O)c1ccc[n+](C)c1)C(=O)O  half-life (HPLC-UV; 20% rat brain homogenate; pH 7.4): 23 min
C[C@@H]1N=C(c2ccccc2F)c2cc(Br)ccc2-n2cnc(C(=O)O)c21  half-life (mouse liver S9 fraction; 10 µM, glucuronidation): 435 min
CCC(C(=O)Nc1sc(C(N)=O)c(C)c1C(=O)OC)c1ccc(F)cc1 (centres unmarked)  half-life (human liver microsomes; 1 µM): 102 min
CN[C@H](CC(C)C)C(=O)N[C@H]1C(=O)N[C@@H](CC(N)=O)C(=O)N[C@H]2C(=O)N[C@H]3C(=O)N[C@H](C(=O)N[C@H](C(=O)O)c4cc(O)cc(O)c4-c4cc3ccc4O)[C@H](O)c3ccc(c(Cl)c3)Oc3cc2cc(c3O[C@@H]2O[C@H](CO)[C@@H](O)[C@H](O)[C@H]2O[C@H]2C[C@](C)(N)[C@H](O)[C@H](C)O2)Oc2ccc(cc2Cl)[C@H]1O  half-life (rabbit, serum): ~120 min
CC(=O)OC/C(C)=C/CCP(=O)(OCOC(=O)CC1CCCCC1)Oc1ccc(C(C)C)cc1 (centres unmarked)  half-life (50% CD1 mouse plasma; 100 µM, pH 7.5, 37 °C): 3 min

Some of these lines once more:
N=C(Nc1ccccc1)Nc1ccccc1  half-life (substrate depletion; phenobarbital/β-naphthoflavone-induced rat liver microsomes; 1 µM, pH 7.4, 37 °C, with: NADPH): 54.4 min
CCCCCn1cc(C(=O)Nc2cccc3ccccc23)c2ccccc21  half-life (male human liver microsomes; 1 µM, pH 7.4, 37 °C): 2.29 min
Nc1ncnc2c1ncn2[C@@H]1O[C@@H]2COP(=O)([S-])O[C@@H]3[C@H](O)[C@@H](COP([O-])(=S)O[C@H]2[C@H]1O)O[C@H]3n1cnc2c(N)ncnc21.[Na+].[Na+] (some centres unmarked)  half-life (HPLC; 20% FBS in PBS; 100 µM, pH 7.4, 37 °C): 4020 min
CC(C)C[C@@H](NC(=O)[C@H](Cc1ccccc1)NC(=O)CNC(=O)[C@@H](C)NC(=O)[C@H](Cc1ccc(O)cc1)NC(=O)[C@@H]1CCCN1C(=O)c1ccc[n+](C)c1)C(=O)O  half-life (HPLC-UV; 20% rat brain homogenate; pH 7.4): 346 min
O=C(O)Cc1ccccc1Nc1c(Cl)cccc1Cl  half-life (human liver microsomes; 1 µM, pH 7.4): 5.5 min
